Measurements gathered from unrelated publications.
Each line is one published result; not all experiments were run side by side. Several values in a cell are separate wells, animals, samples, runs or records. ± gives the spread as reported.
Organism: Mycobacterium tuberculosis

Structure (SMILES) = O=C(C[N+]1=C(c2ccc(F)c(F)c2)c2cccn2CC1)c1ccccc1; test system = H37Rv; conditions = with: kanamycin; measurement = kanamycin MIC; value = ≤ 1.25 µg/mL
Structure (SMILES) = Nc1nc(N)c2c(Cl)c(CNc3ccc(C(=O)O)cc3)ccc2n1; assay = intracellular growth; test system = THP-1; measurement = MIC; value = ~0.05 µM
Structure (SMILES) = Cc1ccc(C(=O)C[N+]2=C(c3ccc(F)c(F)c3)c3cccn3CC2)cc1; test system = H37Rv; conditions = with: kanamycin; measurement = kanamycin MIC; value = ≤ 1.25 µg/mL
Structure (SMILES) = CC(=O)Oc1ccc2nc3ccc(=O)cc-3oc2c1; test system = mc2 6206 PA-824-resistant ddn mutant; conditions = 7 days; measurement = MIC90; value = > 256 µM
Structure (SMILES) = O=C(C[N+]1=C(c2ccc(F)c(F)c2)c2cccn2CC1)c1ccc(F)cc1; test system = H37Rv; conditions = with: kanamycin; measurement = kanamycin MIC; value = ≤ 1.25 µg/mL
Structure (SMILES) = O=c1c2ccccc2[nH]c(=S)n1Cc1cccnc1; assay = intracellular growth; test system = THP-1 macrophages, H37Rv-GFP; measurement = maximum growth inhibition; value = ~72%
Structure (SMILES) = Oc1cc(Cn2cc(C3CC3)nn2)ccc1Oc1ccccc1Cl; assay = Alamar Blue; conditions = 6 days plus 24 h, 37 °C; measurement = MIC; value = 0.156 µg/mL
Structure (SMILES) = CC(O)c1cc2[nH]c(=S)n(Cc3cccnc3)c(=O)c2cc1Cl (single isomer, unassigned); test system = H37Rv; measurement = MIC90; value = > 100 µM
Structure (SMILES) = Cc1ccccc1Oc1ccc(Cn2cc(C3CC3)nn2)cc1O; assay = Alamar Blue; conditions = 6 days plus 24 h, 37 °C; measurement = MIC; value = < 1 µg/mL and 0.78 µg/mL
Structure (SMILES) = O=c1c2cc(CO)ccc2[nH]c(=S)n1Cc1cccnc1; test system = PptT conditional knock-down; measurement = MIC90; value = 92.2 µM
Structure (SMILES) = CO[C@H]1[C@H](O[C@H]([C@H]2O[C@@H](n3ccc(=O)[nH]c3=O)[C@H](O)[C@@H]2O)[C@H](NCCCNC(=O)[C@@H](NC(=O)[C@@H](NC(=O)N[C@H](C(=O)O)C(C)C)[C@@H]2CCNC(=N)N2)[C@@H](OC(=O)CCCCCCCCCCCCN(O)C(=N)N)C(C)C)C(N)=O)O[C@H](CN)[C@H]1O; assay = alamar blue; test system = H37Rv; measurement = MIC90; value = 0.04 ± 0.005 µg/mL

Excerpt of the above:
Structure (SMILES) = O=C(C[N+]1=C(c2ccc(F)c(F)c2)c2cccn2CC1)c1ccccc1; test system = H37Rv; conditions = with: kanamycin; measurement = kanamycin MIC; value = ≤ 1.25 µg/mL
